# Measurements gathered from unrelated publications.
# Each line is one published result; not all experiments were run side by side. Several values in a cell are separate wells, animals, samples, runs or records. ± gives the spread as reported.
Structure (SMILES),target or system,test,test system,setting,scale,quantity,result
COc1ccc2c(N(C)c3ccc(/C(C)=N/OCCN)cc3)c3c(Cl)coc3nc2c1,LNCaP C-81,immunoblot,,"1 µM, 72 h, steroid-reduced medium",,phospho-ERK1/2 level,decreased
COc1cc([C@@H](CC(=O)O)c2ccc(C)c(CN3C[C@@H](C)Oc4ccccc4S3(=O)=O)c2)cc2nnn(C)c12,KRAS wild-type lung cancer cells,MTT,,"concentration not given, 48 h, 2D culture, single agent",,cell viability,no effect
CN(C)C[C@@H]1CCn2cc(c3ccccc32)C2=C(C(=O)NC2=O)c2cn(c3ccccc23)CCO1,iCell Cardiomyocytes (hiPSC-derived),xCELLigence Cardio impedance,,"concentration not given, 2 h",relative to: control,beat rate,71.9%
CSc1cc(Oc2ccnc3[nH]c(=O)cnc23)ccc1NC(=O)Nc1cc(C(C)(C)C)nn1-c1ccccc1,patient-derived cells,"RPPA, measured: phosphorylated Tuberin",,"1 µM, 4 h, mean of three patients",relative to: DMSO,phospho ratio,1.05
Cc1nc2ccc(OCc3ccc(C(F)(F)F)cc3)cc2[nH]1,sample A patient iPSC NPCs,"cell protection, MTS",,"up to 100 µM, 24 h",,Emax,74%
Clc1ccc(C2(c3ccc(-c4cn[nH]c4)cc3)CCNCC2)cc1,SK-OV-3,ATP,,"10 µM, 4 days, 3D U-bottom low-attachment",relative to: untreated,relative cell number,29.2%
COc1ccc(-n2nc(C(C)=O)s/c2=N\N=C(/C)c2ccc(NC(=O)c3ccc(C)cc3)cc2)cc1,MCF7,,,0.156 µM,,toxicity,43.9%
Cn1cc(-n2cnc3c(NCc4nc5cc(Cl)c(Cl)cc5[nH]4)nc(N4CCOCC4)nc32)cn1,MDA-MB-231,"qRT-PCR, measured: BRCA1",,"0.05 µM, 6 h, unit not given",relative to: DMSO,mRNA level,0.374 and 0.255 and 0.337
CCn1c(-c2nonc2N)nc2cncc(CNC3CCNCC3)c21,SK-OV-3,ATP,,"0.1 µM, 4 days, 3D gellan gum culture",relative to: untreated,relative cell number,88.4%
Cc1ccc2nc(NCCN)c3ncc(C)n3c2c1,iCell Cardiomyocytes (hiPSC-derived),xCELLigence Cardio impedance,,"concentration not given, 2 h",relative to: control,beat rate,90.7%
Cc1cc(Nc2ncc(Cl)c(Nc3ccccc3S(=O)(=O)C(C)C)n2)c(OC(C)C)cc1C1CCNCC1,CLB-BAR,"phosphoproteomics LC-MS/MS, measured: AKT1 phosphorylation",,"200 nM, 60 min",relative to: untreated,log2 fold change,-5.99
C[C@@H]1CN(C(=O)c2ccc(NC(=O)c3cc(O[C@H](C)c4c(Cl)ccc(F)c4Cl)c(N)nn3)cc2)C[C@H](C)N1,KARPAS-299 (NPM1-ALK),cell viability,,,,Emax,80%
C=CC(=O)N1CCC[C@@H](n2nc(-c3ccc(Oc4ccccc4)cc3)c3c(N)ncnc32)C1,Ramos,"calcium flux, FLIPR",,2 h preincubation,,IC50,0.00104 µM
Cn1cc(-c2ccc(-c3cncc(Cl)c3N3CCC4(CCNC4=O)CC3)cc2)cn1,COLO 205,"microarray, measured: NFE2L2",,"concentration not given, 2 h, gene set NRF2",relative to: untreated cells,fold change in expression,2.1
Cc1nc(N(Cc2ccccc2)c2ccc3c(c2)/C(=C/c2ccccc2)C(=O)N3Cc2ccccc2)c2ccccc2n1 (mixture of isomers),A549,,,"1.0 µM, 24 h",,wound healing rate,10.6%
CN1CCN(c2ccc3nc(-c4c(N)c5c(F)cccc5[nH]c4=O)[nH]c3c2)CC1,ARPE-19 HiBiT fibulin-3,HiBiT luminescence,,1.66 µM,,fibulin-3 level,-26.6%
N#CC[C@H](C1CCCC1)n1cc(-c2ncnc3[nH]ccc23)cn1,iCell Cardiomyocytes (hiPSC-derived),xCELLigence Cardio impedance,,"concentration not given, 2 h",relative to: control,beat rate,102%
COc1cccc2c1C(=O)c1c(O)c3c(c(O)c1C2=O)C[C@@](O)(C(=O)CO)C[C@@H]3O[C@H]1C[C@H](N)[C@H](O)[C@H](C)O1,A549 and Vero,MTT,,,relative to: CC50 Vero over EC50 A549,selectivity index,1.1
C[C@H](N)C(=O)O,,"binding, equilibrium dialysis LC-MS",,"5 µM, thermostabilized A2AR-BRIL construct","relative to: no-protein control, direction not given",z-scored log2 fold change,0.1
CCCN1CCN(c2ccc3[nH]c(-c4ccc5[nH]c(-c6ccc(OCC)c(OCC)c6)nc5c4)nc3c2)CC1,KM12,SRB,,"10 µM, 48 h",,growth percent,-54.8%
Cc1ccc(CNC(=O)Cn2cc(CSc3nc4ccccc4[nH]3)nn2)cc1,MDA-MB-231,MTT,,125 ppm,,viability,8.34%
Cn1cc(-c2ccc(F)c(C(F)(F)F)c2)nc1C1CCN(c2ncnc3[nH]ncc23)CC1,SK-OV-3,ATP,2D monolayer culture,"0.01 µM, 4 days",relative to: untreated,relative cell number,102%
COc1ccc2c(c1)CN(C(=O)CCN1CCC(Cc3ccccc3)CC1)CC[S@@+]2[O-],rabbit ventricular cardiomyocytes,optical action potential,,"0.3 µM, 30 min, pacing 2 Hz",,APD90 prolongation,~10%
O=C(O)c1cc(=O)[nH]c(=O)n1[C@@H]1O[C@H](COP(=O)(O)O)[C@@H](O)[C@H]1O,,"binding, equilibrium dialysis LC-MS",,"5 µM, thermostabilized A2AR-BRIL construct","relative to: no-protein control, direction not given",z-scored log2 fold change,0.114
CCCN1CCN(c2ccc3[nH]c(-c4ccc5[nH]c(-c6cc(OC)c(OC)c(OC)c6)nc5c4)nc3c2)CC1,NCI/ADR-RES,"cell growth, NCI-60 SRB",,"10 µM, 48 h",,growth percent,100%
C[C@H](Nc1ccc2c(c1)OCCn1cc(N3C(=O)OC[C@H]3C(F)F)nc1-2)C(N)=O,Detroit 562,CellTiter-Glo,,120 h,,Hill coefficient GR curve,0.636
Cc1nc(Nc2ncc(C(=O)Nc3c(C)cccc3Cl)s2)cc(N2CCN(CCO)CC2)n1,iCell Cardiomyocytes (hiPSC-derived),CellTiter-Glo,,"concentration not given, 24 h",relative to: control,ATP level,94.8%
CCn1cc(-c2cc(Cn3ccoc3=N)cc3c2CCN([C@@H](C)c2cc(OC)ccn2)C3=O)c(C(F)(F)F)n1,MCAS,cell growth,,120 h,,EC50,10.5 µM
CCCS(=O)(=O)Nc1ccc(F)c(C(=O)c2c[nH]c3ncc(Cl)cc23)c1F,iCell Cardiomyocytes (hiPSC-derived),xCELLigence Cardio impedance,,"concentration not given, 2 h",relative to: control,beat amplitude,103%
C=CC(=O)N1CCC([C@@H]2CCNc3c(C(N)=O)c(-c4ccc(Oc5ccccc5)cc4)nn32)CC1,TMD8 RAC2 knockout,"calcium flux, FLIPR",,"concentration not given, 1 h preincubation",,inhibition,101%
CN1CC[C@H](c2c(O)cc(O)c3c(=O)cc(-c4ccccc4Cl)oc23)[C@H](O)C1,iCell Cardiomyocytes (hiPSC-derived),cellular impedance,,"concentration not given, 24 h",relative to: control,cell index,48.7%
C[C@H]1CN(C2COC2)CCN1c1ccc(Nc2cc(-c3ccnc(N4CCn5c(cc6c5CC(C)(C)C6)C4=O)c3CO)cn(C)c2=O)nc1,Ramos,"calcium flux, FLIPR",,4 h preincubation,,maximum inhibition,86.2%
C[C@@H](Oc1cc(-c2cnn(C3CCNCC3)c2)cnc1N)c1c(Cl)ccc(F)c1Cl,iCell Cardiomyocytes (hiPSC-derived),xCELLigence Cardio impedance,,"concentration not given, 2 h",relative to: control,beat rate,56.9%
COc1cc2ccnc(Cc3cccc(-c4ccccc4)c3)c2cc1OC,A549,"mitochondrial oxygen consumption, Seahorse XF96",,10 µM,,inhibition,17%
O=C(/C=C/C=C/C=C/C1CCCCC1)NC1=C[C@@](O)(/C=C/C=C/C=C/C(=O)NC2=C(O)CCC2=O)[C@@H]2O[C@@H]2C1=O,CFPAC-1,"cell growth, CellTiter-Glo",,78 h,,GI50,> 30 µM
Cn1cnc2c(F)c(Nc3ccc(Br)cc3F)c(C(=O)NOCCO)cc21,A549,,,"0.07813 µM, 72 h",,viability,74.9%
COc1cnc2cccc(N3CCc4c(cc(Cn5ccnc5C)cc4-c4cn(C)nc4C(F)(F)F)C3=O)c2c1,OVTOKO,"cell growth, inhibitor",,120 h,,EC50,0.876 µM
CNC(=O)c1cc(Oc2ccc(NC(=O)Nc3ccc(Cl)c(C(F)(F)F)c3)cc2)ccn1,iCell Cardiomyocytes (hiPSC-derived),cellular impedance,,"concentration not given, 24 h",relative to: control,cell index,96.8%
COc1cc2c(cc1O)C(Cc1ccc(O)c(-c3c(O)c(OC)cc4c3C(Cc3ccc(O)cc3)N(C)CC4)c1)N(C)CC2 (stereo not shown),3T3-L1,"adipocyte lipid accumulation, Nile Red staining",,50 µM,,inhibition,3.1 ± 0.6%
OC1CCN(c2ccc(/C=N/NC(=S)Nc3ccccc3)cc2)CC1,BEAS-2B and A549,MTT,,,relative to: IC50 BEAS-2B over IC50 A549,selectivity ratio,5
Cc1cccc(C)c1NC(=O)CN1CCCC1=O,HepaRG,ROS-Glo,,,,maximal ROS response,-89.8 ± 11.9%
CCn1cc(-c2cc(Cn3ccnc3)cc3c2CCN([C@H](c2cc(OC)ccn2)C2CC2)C3=O)c(C(F)(F)F)n1,MCAS,cell growth,,120 h,,EC50,9.04 µM
Cc1cccc(-c2[nH]c(CNc3ccccc3F)nc2-c2ccc3ncnn3c2)n1,MM1.S,XTT,,1.6 µM,relative to: untreated,viability,30%

# A few entries again:
Structure (SMILES),target or system,test,test system,setting,scale,quantity,result
Cn1cnc2c(F)c(Nc3ccc(Br)cc3F)c(C(=O)NOCCO)cc21,A549,,,"0.07813 µM, 72 h",,viability,74.9%
COc1cnc2cccc(N3CCc4c(cc(Cn5ccnc5C)cc4-c4cn(C)nc4C(F)(F)F)C3=O)c2c1,OVTOKO,"cell growth, inhibitor",,120 h,,EC50,0.876 µM
CNC(=O)c1cc(Oc2ccc(NC(=O)Nc3ccc(Cl)c(C(F)(F)F)c3)cc2)ccn1,iCell Cardiomyocytes (hiPSC-derived),cellular impedance,,"concentration not given, 24 h",relative to: control,cell index,96.8%
COc1cc2c(cc1O)C(Cc1ccc(O)c(-c3c(O)c(OC)cc4c3C(Cc3ccc(O)cc3)N(C)CC4)c1)N(C)CC2 (stereo not shown),3T3-L1,"adipocyte lipid accumulation, Nile Red staining",,50 µM,,inhibition,3.1 ± 0.6%
OC1CCN(c2ccc(/C=N/NC(=S)Nc3ccccc3)cc2)CC1,BEAS-2B and A549,MTT,,,relative to: IC50 BEAS-2B over IC50 A549,selectivity ratio,5
Cc1cccc(C)c1NC(=O)CN1CCCC1=O,HepaRG,ROS-Glo,,,,maximal ROS response,-89.8 ± 11.9%
